Assay results pooled from the literature.
Every numbered part comes from another study and shows a few of its results, in no order.
Chain of UniProt P51957 (whole entry, looked up): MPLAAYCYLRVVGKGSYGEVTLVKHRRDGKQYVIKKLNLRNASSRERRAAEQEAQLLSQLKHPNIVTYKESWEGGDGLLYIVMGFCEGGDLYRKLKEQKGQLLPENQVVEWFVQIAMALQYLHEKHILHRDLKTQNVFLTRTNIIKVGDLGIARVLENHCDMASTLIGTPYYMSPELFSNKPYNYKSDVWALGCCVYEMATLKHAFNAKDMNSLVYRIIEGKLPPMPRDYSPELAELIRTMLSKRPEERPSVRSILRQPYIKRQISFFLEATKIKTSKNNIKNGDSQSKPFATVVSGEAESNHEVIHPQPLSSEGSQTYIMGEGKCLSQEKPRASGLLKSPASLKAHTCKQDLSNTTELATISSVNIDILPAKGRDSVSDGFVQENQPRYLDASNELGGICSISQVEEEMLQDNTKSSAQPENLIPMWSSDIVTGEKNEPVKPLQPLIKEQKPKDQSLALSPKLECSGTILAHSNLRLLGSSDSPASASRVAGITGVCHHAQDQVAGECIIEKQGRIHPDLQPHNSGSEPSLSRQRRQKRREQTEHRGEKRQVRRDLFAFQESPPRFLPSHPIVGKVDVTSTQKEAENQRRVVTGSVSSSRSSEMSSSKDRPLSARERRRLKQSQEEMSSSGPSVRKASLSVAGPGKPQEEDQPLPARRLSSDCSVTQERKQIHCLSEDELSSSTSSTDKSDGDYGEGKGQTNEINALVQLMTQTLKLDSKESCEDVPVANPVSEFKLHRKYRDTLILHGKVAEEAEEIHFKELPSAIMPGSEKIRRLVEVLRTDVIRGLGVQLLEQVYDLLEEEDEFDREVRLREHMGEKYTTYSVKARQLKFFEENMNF
Chain of UniProt Q9NWZ3 (whole entry, looked up): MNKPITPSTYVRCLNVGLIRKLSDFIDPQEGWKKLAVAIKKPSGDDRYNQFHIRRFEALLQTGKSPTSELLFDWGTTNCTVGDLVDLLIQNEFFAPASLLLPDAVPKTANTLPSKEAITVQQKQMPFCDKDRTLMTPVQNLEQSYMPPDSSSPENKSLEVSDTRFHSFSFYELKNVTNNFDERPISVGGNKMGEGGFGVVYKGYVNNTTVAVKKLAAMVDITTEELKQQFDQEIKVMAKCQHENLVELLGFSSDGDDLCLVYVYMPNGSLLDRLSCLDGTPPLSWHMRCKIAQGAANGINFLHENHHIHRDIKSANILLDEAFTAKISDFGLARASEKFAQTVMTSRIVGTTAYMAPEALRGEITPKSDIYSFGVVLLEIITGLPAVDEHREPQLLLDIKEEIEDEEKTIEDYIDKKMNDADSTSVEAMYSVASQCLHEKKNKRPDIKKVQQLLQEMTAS
Chain of UniProt Q9HBH9 (whole entry, looked up): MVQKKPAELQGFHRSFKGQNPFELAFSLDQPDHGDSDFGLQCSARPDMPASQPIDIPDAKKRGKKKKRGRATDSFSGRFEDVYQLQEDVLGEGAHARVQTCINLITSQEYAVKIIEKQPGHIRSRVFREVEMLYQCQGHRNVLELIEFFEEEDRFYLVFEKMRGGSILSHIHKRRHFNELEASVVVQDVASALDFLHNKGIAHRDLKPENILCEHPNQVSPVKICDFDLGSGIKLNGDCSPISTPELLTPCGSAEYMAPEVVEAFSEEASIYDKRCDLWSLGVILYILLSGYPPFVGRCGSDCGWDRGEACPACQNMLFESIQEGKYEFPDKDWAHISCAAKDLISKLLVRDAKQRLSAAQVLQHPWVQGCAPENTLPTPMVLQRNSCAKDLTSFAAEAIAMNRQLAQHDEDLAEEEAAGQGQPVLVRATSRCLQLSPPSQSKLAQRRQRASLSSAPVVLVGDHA
Chain of UniProt P68400 (whole entry, looked up): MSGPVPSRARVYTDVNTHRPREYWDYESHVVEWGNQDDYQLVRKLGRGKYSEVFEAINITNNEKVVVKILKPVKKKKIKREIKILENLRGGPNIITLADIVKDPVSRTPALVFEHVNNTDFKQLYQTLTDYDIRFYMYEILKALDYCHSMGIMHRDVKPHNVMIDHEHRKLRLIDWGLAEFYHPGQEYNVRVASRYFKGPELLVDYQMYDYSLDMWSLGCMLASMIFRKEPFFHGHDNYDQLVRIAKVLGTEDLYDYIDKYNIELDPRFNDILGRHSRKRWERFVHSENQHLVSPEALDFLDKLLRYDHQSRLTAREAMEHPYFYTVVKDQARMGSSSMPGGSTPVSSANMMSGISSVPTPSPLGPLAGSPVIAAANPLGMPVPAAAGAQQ
Chain of UniProt Q05655 (whole entry, looked up): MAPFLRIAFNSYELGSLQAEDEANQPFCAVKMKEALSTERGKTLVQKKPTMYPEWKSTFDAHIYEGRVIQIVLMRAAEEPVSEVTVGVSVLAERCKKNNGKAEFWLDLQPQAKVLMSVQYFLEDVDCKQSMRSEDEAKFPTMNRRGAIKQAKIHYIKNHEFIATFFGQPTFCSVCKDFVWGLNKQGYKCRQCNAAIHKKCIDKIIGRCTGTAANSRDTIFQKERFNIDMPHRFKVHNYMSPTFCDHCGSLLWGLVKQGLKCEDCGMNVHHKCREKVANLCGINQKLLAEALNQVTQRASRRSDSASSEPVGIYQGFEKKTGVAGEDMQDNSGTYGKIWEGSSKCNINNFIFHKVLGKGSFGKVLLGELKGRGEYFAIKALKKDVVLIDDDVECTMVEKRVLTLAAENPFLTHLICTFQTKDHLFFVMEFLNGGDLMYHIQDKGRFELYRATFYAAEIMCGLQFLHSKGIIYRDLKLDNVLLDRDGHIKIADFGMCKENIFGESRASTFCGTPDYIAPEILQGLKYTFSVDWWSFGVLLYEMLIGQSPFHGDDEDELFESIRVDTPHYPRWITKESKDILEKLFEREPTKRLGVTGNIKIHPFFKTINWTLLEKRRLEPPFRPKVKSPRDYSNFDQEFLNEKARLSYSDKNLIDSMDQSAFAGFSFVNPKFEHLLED
Chain of UniProt P45985 (whole entry, looked up): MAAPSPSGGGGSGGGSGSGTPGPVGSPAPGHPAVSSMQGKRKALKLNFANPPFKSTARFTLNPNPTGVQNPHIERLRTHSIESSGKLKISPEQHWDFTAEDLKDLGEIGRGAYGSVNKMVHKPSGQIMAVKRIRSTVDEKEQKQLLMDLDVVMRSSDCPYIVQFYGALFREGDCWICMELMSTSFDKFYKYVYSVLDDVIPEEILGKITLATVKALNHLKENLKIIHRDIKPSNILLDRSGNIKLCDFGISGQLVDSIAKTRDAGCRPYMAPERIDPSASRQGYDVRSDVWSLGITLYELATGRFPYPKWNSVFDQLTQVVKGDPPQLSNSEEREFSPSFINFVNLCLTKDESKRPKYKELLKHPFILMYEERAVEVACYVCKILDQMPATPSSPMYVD
Chain of UniProt Q13976 (whole entry, looked up): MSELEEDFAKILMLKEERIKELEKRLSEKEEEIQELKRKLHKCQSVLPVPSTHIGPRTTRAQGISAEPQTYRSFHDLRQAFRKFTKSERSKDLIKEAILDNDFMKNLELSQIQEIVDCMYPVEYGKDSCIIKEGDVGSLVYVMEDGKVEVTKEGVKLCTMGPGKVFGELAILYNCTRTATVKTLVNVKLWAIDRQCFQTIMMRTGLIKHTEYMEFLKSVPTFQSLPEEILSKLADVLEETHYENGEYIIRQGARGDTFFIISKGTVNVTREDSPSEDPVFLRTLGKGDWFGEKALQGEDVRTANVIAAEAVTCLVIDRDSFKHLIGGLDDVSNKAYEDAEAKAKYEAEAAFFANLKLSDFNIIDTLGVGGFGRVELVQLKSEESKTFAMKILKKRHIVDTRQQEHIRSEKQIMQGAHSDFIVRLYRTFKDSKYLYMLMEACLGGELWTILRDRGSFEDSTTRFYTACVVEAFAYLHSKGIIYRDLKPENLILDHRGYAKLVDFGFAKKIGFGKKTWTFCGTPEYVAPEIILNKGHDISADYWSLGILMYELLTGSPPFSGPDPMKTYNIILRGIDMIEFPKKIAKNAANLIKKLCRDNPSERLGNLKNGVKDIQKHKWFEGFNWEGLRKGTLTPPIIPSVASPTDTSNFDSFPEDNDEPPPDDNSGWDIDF
Chain of UniProt O15264 (whole entry, looked up): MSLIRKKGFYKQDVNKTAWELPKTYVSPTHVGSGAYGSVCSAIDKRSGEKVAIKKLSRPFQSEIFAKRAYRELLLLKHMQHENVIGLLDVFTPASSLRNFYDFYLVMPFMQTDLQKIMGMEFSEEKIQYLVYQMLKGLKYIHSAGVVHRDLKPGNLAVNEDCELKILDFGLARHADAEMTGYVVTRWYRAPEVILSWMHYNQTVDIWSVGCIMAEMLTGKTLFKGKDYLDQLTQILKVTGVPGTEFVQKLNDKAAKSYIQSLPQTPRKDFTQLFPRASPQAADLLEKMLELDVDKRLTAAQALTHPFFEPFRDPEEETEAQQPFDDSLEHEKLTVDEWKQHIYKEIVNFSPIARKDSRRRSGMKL

Series 1
Target: Beta-1 adrenergic receptor (ADRB1, Homo sapiens, UniProt P08588)
Chain of UniProt P08588 (whole entry, looked up): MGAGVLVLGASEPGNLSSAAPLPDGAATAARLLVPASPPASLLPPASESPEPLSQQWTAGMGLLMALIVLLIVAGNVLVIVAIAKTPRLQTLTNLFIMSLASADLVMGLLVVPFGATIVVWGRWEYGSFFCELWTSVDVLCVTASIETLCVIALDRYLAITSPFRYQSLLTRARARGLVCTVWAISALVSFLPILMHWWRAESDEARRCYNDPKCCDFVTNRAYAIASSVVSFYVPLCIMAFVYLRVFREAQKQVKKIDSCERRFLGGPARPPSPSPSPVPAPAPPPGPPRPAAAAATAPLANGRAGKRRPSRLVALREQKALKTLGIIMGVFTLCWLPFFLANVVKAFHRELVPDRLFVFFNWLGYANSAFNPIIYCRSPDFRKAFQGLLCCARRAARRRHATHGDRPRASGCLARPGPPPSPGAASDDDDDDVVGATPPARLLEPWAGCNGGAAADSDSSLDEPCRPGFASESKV
Action: agonist
Quantity: EC50
OC(CN1CCC(Cc2ccc(F)cc2)CC1)c1ccc(Cl)cc1 (stereo not shown): ≥ 100 µM
CC1(C)C=Cc2cc3ccc(=O)oc3cc2O1: ≥ 100 µM
OC(COc1ccc(CN2CC(Oc3ccccc3)C2)cc1)CN1CCCCC1 (stereo not shown): ≥ 100 µM
CCOc1ccc(-c2cc3c(=O)n(CC(O)c4ccc(C(C)C)cc4)ccn3n2)cc1 (stereo not shown): ≥ 100 µM
CN(C)CC(O)c1cc2n(n1)CCN(C(=O)CCc1ccc(=O)[nH]n1)C2 (stereo not shown): ≥ 100 µM
COc1ccc(OC)c(-c2cc(-c3ccccc3)nc3c(C)noc23)c1: ≥ 100 µM
Cc1cc(C)n(-c2cc(OCC3CCN(c4nc5c(cc4C#N)CCC5)CC3)ncn2)n1: ≥ 100 µM
Cc1noc2c(-c3cnn(C)c3)cc(-c3cccc(C(F)(F)F)c3)nc12: ≥ 100 µM
COCCn1ccc2c(C3=CCOCC3)nc(-c3cccc(O)c3)cc21: ≥ 100 µM
Cc1noc2c(NC3CCOCC3)cc(-c3ccsc3)nc12: ≥ 100 µM

Series 2
Organism: Sarcocystis neurona
Read-out: parasite growth
Concentration: 10 µM
Time: 96 h
Notes: first screen
Relative to: untreated
Quantity: log2 fold change
COC(=O)C1=C(C)NC(C)=C(C(=O)OCCN(C)Cc2ccccc2)C1c1cccc([N+](=O)[O-])c1 (stereo not shown): 0.37
C[C@@H]1O[C@@H](OC[C@H]2O[C@@H](Oc3c(-c4ccc(O)c(O)c4)oc4cc(O)cc(O)c4c3=O)[C@H](O)[C@@H](O)[C@@H]2O)[C@H](O)[C@H](O)[C@H]1O: 0.0232
CCc1cccc2c3c([nH]c12)C(CC)(CC(=O)O)OCC3 (stereo not shown): 0.29
Nc1c2c(nc3c1CCC3)CCCC2: -0.2
Nc1nc(O)c2ncn(COC(CO)CO)c2n1: 0.17
CN(C)CCOC(C)(c1ccccc1)c1ccccn1 (stereo not shown): 0.11
CC(=O)OCC(=O)[C@@]1(O)CC[C@H]2[C@@H]3C[C@H](C)C4=CC(=O)C=C[C@]4(C)[C@H]3[C@@H](O)C[C@@]21C: -0.05
CS(=O)(=O)c1ccc(C2=C(c3ccccc3)C(=O)OC2)cc1: -0.0125
O=C(NCCN1CCOCC1)c1ccc(Cl)cc1: 0.37
C[C@H]1C[C@H]2[C@@H]3CCC4=CC(=O)C=C[C@]4(C)[C@@]3(F)[C@@H](O)C[C@]2(C)[C@@]1(O)C(=O)CO: 0.31
CC1(C)O[C@@H]2C[C@H]3[C@@H]4C[C@H](F)C5=CC(=O)C=C[C@]5(C)[C@H]4[C@@H](O)C[C@]3(C)[C@]2(C(=O)CO)O1: 0.39

Series 3
Structure (SMILES): c1ccc2c(-c3ccncc3)c[nH]c2c1
Read-out: enzyme activity
Action: inhibitor
Concentration: 0.5 µM
Relative to: control
Quantity: remaining activity
IRAK4 (Homo sapiens, UniProt Q9NWZ3): 109%
NEK4 (Homo sapiens, UniProt P51957): 95.4%
MAPK12 (Homo sapiens, UniProt P53778): 104%
Cyclin-dependent kinase 9, with cyclin T1 (CDK9, Homo sapiens, UniProt P50750): 75.2%
STK38 (Homo sapiens, UniProt Q15208): 109%
MAPK13 (Homo sapiens, UniProt O15264): 123%
MAP4K2 (Homo sapiens, UniProt Q12851): 101%
MAP3K10 (Homo sapiens, UniProt Q02779): 101%
EPHA5 (Homo sapiens, UniProt P54756): 99.4%
CSNK1A1 (Homo sapiens, UniProt P48729): 100%
MKNK2 (Homo sapiens, UniProt Q9HBH9): 39.2%
PLK2 (Homo sapiens, UniProt Q9NYY3): 99.9%
PRKG1 (Homo sapiens, UniProt Q13976): 64.8%
PRKCD (Homo sapiens, UniProt Q05655): 83.2%
WNK2 (Homo sapiens, UniProt Q9Y3S1): 96.9%
MAP2K6 (Homo sapiens, UniProt P52564): 106%
CSNK2A1 (Homo sapiens, UniProt P68400): 95%
LRRK2 (Homo sapiens, UniProt Q5S007): 92.8%
PRKCI (Homo sapiens, UniProt P41743): 82.4%
AKT3 (Homo sapiens, UniProt Q9Y243): 101%
CHEK1 (Homo sapiens, UniProt O14757): 104%
LYN (Homo sapiens, UniProt P07948): 102%
BTK (Homo sapiens, UniProt Q06187): 104%
KIT (Homo sapiens, UniProt P10721): 93.2%

Series 4
Structure (SMILES): O=C(NCc1ncc(C(F)(F)F)cc1Cl)c1ccc2c(c1)C1(CCS(=O)(=O)CC1)[C@H](C1CC1)N2S(=O)(=O)c1ccc(F)cc1
Read-out: cell-free assay
Technique: competition with immobilised ligand
Concentration: 1 µM
Quantity: remaining binding
BLK (Homo sapiens, UniProt P51451): 78%
CAMKK1 (Homo sapiens, UniProt Q8N5S9): 100%
PRKAA1 (Homo sapiens, UniProt Q13131): 39%
PIK3CA (Homo sapiens, UniProt P42336, E542K): 94%
Tyrosine-protein kinase ABL1, phosphorylated (ABL1, Homo sapiens, UniProt P00519, T315I): 90%
IGF1R (Homo sapiens, UniProt P08069): 100%
WEE1 (Homo sapiens, UniProt P30291): 82%
STK32A (Homo sapiens, UniProt Q8WU08): 100%
MAP2K4 (Homo sapiens, UniProt P45985): 75%
PRKCH (Homo sapiens, UniProt P24723): 100%

Repeated from above (series 2):
C[C@@H]1O[C@@H](OC[C@H]2O[C@@H](Oc3c(-c4ccc(O)c(O)c4)oc4cc(O)cc(O)c4c3=O)[C@H](O)[C@@H](O)[C@@H]2O)[C@H](O)[C@H](O)[C@H]1O: 0.0232
CCc1cccc2c3c([nH]c12)C(CC)(CC(=O)O)OCC3 (stereo not shown): 0.29
Nc1c2c(nc3c1CCC3)CCCC2: -0.2
Nc1nc(O)c2ncn(COC(CO)CO)c2n1: 0.17
CN(C)CCOC(C)(c1ccccc1)c1ccccn1 (stereo not shown): 0.11
CC(=O)OCC(=O)[C@@]1(O)CC[C@H]2[C@@H]3C[C@H](C)C4=CC(=O)C=C[C@]4(C)[C@H]3[C@@H](O)C[C@@]21C: -0.05
